Measured values from different studies.
Numbers after ± are the reported error.
Pick1 PDZ domain: PRKCA-binding protein, PDZ domain (Pick1, Rattus norvegicus, UniProt Q9EP80)
MAPK8: Mitogen-activated protein kinase 8 (MAPK8, Homo sapiens, UniProt P45983)
Sigmar1: Sigma non-opioid intracellular receptor 1 (Sigmar1, Rattus norvegicus, UniProt Q9R0C9)
MAPK14: Mitogen-activated protein kinase 14 (MAPK14, Homo sapiens, UniProt Q16539)
Bcl-2-related protein A1 C113S/P104K: Bcl-2-related protein A1 (Mus musculus, UniProt Q07440, C113S/P104K)
Cd1d1 dimeric Ig fusion: Cd1d1, dimeric Ig fusion (Mus musculus, UniProt P11609)
PRKCA: Protein kinase C alpha type (PRKCA, Homo sapiens, UniProt P17252)
PRKCD: Protein kinase C delta type (PRKCD, Homo sapiens, UniProt Q05655)
FOLH1: Glutamate carboxypeptidase 2 (FOLH1, Homo sapiens, UniProt Q04609)

By UniProt entry, the sequences of proteins in these tests, tags left out. Where a name states a change or a piece, a line headed by the entry shows the natural chain unless it says otherwise. Residues count along the entry.
UniProt Q9EP80, whole entry: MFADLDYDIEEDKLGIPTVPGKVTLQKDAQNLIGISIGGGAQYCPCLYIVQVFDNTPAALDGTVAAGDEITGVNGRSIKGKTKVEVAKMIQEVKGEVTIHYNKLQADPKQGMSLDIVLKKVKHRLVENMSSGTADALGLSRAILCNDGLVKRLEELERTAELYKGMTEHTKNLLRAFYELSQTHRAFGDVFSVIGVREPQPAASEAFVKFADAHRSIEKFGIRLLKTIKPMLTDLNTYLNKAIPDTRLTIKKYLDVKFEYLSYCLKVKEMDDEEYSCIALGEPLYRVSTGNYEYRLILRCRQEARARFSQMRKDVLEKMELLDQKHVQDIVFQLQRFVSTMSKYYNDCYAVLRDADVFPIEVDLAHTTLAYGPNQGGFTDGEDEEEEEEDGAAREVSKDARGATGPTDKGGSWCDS
UniProt P45983, whole entry: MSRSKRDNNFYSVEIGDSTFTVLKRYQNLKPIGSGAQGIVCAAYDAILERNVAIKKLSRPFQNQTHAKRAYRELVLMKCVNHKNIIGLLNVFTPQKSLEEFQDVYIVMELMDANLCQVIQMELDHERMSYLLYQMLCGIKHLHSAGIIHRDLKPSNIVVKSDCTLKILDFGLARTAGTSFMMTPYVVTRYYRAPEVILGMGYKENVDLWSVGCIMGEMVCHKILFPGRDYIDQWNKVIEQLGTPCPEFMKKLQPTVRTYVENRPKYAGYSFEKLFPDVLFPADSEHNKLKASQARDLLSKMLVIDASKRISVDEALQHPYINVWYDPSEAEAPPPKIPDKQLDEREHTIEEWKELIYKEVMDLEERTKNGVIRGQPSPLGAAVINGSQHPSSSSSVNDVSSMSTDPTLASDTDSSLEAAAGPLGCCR
UniProt P45983, 1-384 isoform 3: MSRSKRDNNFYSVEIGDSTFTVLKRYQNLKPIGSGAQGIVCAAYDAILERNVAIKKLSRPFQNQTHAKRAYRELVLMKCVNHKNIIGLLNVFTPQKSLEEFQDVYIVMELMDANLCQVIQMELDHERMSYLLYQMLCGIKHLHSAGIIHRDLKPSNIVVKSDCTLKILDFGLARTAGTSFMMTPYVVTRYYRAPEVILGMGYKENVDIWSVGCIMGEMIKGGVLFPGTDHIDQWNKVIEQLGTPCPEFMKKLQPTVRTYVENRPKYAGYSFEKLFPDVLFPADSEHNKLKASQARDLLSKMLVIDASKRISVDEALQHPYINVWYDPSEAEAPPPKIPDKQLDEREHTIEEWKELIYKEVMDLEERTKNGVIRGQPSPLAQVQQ
UniProt Q9R0C9, whole entry: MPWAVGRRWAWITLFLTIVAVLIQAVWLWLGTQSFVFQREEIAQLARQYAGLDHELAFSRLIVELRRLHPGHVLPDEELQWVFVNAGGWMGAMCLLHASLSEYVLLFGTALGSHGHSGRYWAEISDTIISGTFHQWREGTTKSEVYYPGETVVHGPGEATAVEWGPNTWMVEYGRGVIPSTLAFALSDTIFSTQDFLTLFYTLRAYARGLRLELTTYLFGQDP
UniProt Q16539, whole entry: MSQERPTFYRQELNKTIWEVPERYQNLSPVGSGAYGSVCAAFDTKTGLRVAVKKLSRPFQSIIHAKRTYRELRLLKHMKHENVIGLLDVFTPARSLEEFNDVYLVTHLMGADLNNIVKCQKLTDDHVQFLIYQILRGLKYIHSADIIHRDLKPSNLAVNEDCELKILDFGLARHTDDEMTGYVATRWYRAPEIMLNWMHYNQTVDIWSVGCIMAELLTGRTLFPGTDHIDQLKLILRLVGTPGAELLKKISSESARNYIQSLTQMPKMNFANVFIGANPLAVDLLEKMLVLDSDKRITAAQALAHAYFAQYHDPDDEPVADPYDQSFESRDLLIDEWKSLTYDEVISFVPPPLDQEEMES
UniProt Q07440, whole entry P104K/C113S, looked up: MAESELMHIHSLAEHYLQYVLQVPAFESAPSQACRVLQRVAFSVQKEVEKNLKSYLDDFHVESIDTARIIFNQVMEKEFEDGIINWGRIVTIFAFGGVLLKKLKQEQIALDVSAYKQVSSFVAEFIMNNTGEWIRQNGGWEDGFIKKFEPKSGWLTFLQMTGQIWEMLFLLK
UniProt P22756, 31-920 isoform 4 limits assumed: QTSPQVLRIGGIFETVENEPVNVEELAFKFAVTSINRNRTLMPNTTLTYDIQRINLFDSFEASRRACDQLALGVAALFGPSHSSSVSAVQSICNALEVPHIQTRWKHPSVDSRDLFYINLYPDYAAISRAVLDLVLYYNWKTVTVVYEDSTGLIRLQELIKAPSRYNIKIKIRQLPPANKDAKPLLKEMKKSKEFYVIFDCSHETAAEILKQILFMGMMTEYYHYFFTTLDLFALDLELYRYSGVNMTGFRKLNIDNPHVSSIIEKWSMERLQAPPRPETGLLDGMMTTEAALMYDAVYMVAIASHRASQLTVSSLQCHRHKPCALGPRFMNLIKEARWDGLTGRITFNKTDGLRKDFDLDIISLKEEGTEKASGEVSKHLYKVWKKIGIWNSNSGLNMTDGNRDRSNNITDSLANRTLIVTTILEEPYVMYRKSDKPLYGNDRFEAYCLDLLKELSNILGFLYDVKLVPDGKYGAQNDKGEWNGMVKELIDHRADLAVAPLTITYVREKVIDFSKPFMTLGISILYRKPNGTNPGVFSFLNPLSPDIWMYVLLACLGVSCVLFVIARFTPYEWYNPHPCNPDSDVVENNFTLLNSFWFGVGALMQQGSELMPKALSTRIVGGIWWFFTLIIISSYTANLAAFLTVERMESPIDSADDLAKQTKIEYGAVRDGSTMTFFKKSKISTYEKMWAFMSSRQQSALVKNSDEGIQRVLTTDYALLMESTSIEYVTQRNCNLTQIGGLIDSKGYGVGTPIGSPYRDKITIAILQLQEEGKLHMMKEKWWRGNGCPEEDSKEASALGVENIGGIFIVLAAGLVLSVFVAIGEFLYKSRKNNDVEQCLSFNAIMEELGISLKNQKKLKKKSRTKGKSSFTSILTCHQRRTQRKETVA
UniProt P42264, 32-919 limits assumed: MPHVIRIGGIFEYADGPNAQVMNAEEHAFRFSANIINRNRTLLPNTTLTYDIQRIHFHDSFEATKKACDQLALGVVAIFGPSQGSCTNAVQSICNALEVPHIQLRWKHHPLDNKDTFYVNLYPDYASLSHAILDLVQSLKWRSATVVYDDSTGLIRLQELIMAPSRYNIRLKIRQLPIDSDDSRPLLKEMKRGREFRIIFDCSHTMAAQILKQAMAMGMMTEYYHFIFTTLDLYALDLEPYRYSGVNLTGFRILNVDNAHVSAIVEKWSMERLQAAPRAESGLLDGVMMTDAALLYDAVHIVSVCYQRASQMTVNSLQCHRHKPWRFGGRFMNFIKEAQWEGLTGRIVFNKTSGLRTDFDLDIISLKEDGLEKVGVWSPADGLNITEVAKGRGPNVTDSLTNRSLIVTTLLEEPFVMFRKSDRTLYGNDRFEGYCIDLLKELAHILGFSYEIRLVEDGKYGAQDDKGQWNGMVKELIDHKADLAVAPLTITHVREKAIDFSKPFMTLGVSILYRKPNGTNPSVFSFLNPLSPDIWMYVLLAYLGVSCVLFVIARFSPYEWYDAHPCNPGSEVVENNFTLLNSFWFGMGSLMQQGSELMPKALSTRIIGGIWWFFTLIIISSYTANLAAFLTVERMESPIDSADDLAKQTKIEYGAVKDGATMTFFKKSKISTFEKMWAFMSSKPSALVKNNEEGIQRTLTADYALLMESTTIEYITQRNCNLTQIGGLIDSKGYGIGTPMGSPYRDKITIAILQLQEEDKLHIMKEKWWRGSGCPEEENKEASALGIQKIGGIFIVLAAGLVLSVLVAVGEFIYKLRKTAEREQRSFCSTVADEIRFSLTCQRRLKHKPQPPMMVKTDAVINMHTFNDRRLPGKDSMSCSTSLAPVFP
UniProt P08246, 30-247 limits assumed: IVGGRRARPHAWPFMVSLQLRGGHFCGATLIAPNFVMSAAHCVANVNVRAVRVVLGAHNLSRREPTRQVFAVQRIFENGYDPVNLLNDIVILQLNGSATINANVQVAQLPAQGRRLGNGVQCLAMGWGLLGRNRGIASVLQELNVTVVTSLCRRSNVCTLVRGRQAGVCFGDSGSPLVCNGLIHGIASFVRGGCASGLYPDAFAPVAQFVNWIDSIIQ
UniProt Q9NRA0, whole entry: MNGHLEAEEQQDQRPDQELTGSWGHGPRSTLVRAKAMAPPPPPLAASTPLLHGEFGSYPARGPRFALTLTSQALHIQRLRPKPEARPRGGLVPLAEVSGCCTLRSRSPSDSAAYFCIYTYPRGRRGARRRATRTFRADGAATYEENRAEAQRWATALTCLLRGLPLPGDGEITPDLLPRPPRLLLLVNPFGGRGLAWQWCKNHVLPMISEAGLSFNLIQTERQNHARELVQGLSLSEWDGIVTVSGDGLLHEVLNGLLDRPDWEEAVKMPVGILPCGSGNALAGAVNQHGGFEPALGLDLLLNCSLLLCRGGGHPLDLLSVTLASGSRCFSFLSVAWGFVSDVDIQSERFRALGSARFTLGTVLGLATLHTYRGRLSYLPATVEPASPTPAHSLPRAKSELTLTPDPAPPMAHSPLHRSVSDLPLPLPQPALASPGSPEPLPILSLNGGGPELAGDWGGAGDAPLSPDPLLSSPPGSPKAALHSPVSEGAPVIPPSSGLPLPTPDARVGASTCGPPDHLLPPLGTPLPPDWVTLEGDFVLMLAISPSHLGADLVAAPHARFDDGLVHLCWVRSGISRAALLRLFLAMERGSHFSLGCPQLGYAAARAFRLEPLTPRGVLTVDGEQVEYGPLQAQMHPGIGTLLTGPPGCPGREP
UniProt Q2M2I8, 31-396 limits assumed: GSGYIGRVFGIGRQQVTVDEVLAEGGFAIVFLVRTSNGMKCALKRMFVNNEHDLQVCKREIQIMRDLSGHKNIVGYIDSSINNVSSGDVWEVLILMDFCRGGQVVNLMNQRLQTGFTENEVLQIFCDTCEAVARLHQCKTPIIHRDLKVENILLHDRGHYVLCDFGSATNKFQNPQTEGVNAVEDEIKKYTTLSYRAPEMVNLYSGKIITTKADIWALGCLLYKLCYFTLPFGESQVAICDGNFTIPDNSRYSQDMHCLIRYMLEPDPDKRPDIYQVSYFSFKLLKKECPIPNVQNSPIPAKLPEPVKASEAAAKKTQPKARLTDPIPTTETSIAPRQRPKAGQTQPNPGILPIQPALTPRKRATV
UniProt Q9H244, whole entry: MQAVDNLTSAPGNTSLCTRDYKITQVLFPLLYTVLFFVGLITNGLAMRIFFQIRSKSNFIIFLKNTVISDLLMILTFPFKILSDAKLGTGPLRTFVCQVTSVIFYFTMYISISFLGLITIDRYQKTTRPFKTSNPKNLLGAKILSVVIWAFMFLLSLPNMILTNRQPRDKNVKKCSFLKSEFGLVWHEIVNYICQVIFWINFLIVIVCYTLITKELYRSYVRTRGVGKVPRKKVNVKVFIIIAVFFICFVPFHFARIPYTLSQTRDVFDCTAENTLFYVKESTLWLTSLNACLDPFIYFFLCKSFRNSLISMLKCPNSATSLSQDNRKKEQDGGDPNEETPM
UniProt P18825, whole entry: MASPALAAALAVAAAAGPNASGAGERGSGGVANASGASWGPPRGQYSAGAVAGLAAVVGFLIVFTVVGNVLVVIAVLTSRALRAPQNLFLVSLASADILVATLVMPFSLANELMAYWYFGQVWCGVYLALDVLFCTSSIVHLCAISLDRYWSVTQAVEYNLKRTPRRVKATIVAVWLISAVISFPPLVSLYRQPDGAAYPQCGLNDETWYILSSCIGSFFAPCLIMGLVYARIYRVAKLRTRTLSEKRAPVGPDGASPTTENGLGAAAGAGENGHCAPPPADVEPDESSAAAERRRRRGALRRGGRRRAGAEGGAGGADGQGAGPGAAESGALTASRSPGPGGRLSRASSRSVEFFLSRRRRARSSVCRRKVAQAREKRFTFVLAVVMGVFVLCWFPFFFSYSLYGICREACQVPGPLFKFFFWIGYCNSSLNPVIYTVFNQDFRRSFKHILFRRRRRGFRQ
UniProt P28867, 231-280 limits assumed: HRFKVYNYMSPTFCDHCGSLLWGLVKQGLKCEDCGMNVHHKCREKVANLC
UniProt P30542, whole entry: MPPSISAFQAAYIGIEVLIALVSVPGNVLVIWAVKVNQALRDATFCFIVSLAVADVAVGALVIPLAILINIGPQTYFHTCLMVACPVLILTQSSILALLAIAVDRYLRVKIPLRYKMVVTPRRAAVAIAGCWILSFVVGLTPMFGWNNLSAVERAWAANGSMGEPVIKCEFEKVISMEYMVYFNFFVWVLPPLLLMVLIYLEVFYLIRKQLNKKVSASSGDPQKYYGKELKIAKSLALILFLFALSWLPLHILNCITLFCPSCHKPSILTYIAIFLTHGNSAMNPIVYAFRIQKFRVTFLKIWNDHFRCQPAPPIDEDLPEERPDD

C[C@H](NC(=O)c1cc(C(=O)O)cc([C@H]2CCN[C@@H]2C(=O)O)c1)C(=O)O — Ki (Glutamate receptor ionotropic, kainate 1 (Rattus norvegicus, UniProt P22756); binding, radioligand binding; Sf9 membranes; homomeric receptor, added: [3H]SYM2081): 13.3 ± 0.5 µM
CCCCOC(=O)[C@@]12C[C@@H]1[C@@H](n1cnc3c(NC)nc(C#Cc4ccc(Cl)s4)nc31)[C@H](O)[C@@H]2O — Ki (SLC6A4 (Homo sapiens, UniProt P31645); binding, radioligand binding; HEK293; added: [3H]citalopram): 4.1 µM
CCOC(=O)NC(=O)/C(C#N)=C/c1ccc(Cl)c([N+](=O)[O-])c1 — Ki (Pick1 PDZ domain; binding, fluorescence polarization; added: labelled hDAT C-terminal peptide): 22 ± 6.1 µM
COC(=O)[C@@]1(C)C=C(C(=O)OCc2cccc(C(=O)Nc3ccc(Nc4nccc(-c5cccnc5)n4)c(C)c3)c2)C(=O)CC1 — Ki (MAPK8; SPR two-step reversible model): 0.0022 µM
O=C(O)c1cc(C(=O)N[C@@H](Cc2cnc[nH]2)C(=O)O)cc([C@H]2CCN[C@@H]2C(=O)O)c1 — Ki (NMDA receptor (rat); binding, radioligand binding; rat cortical synaptosomes; added: [3H]CGP39653): 5 µM
FC1CCN(c2ccc(-c3ccc4sc(-c5ccn[nH]5)cc4n3)cn2)CC1 — Ki (Alpha-synuclein, PD brain aggregates (SNCA, Homo sapiens, UniProt P37840); binding; Parkinson's disease brain homogenate; added: [3H]asyn-44 1 nM): 0.032 µM
FC(F)(F)c1ccc2c(c1)CCC/C2=N\OCCCN1CCCCC1 — Ki (Sigmar1; radioligand binding; rat): 0.0862 ± 0.00204 µM
O=C(O)CNC(=O)c1cc(C(=O)O)cc([C@H]2CCN[C@@H]2C(=O)O)c1 — Ki (Glutamate receptor ionotropic, kainate 3 (Rattus norvegicus, UniProt P42264); binding, radioligand binding; Sf9 membranes; homomeric receptor, added: [3H]kainate): 22.3 ± 6 µM
FC(F)(F)c1ccc2c(c1)CC/C2=N\OCCCN1CCCCC1 — Ki (Sigmar1; radioligand binding; rat): 0.0307 ± 0.00223 µM
COC(=O)C1(C)C=C(C(=O)OCc2ccccc2)C(=O)C1 (centres unmarked) — Ki (MAPK8; D-peptide displacement, fluorescence polarization): 2.1 ± 0.3 µM
CCCCC(=O)n1ncc(=O)c2ccccc21 — Ki (Neutrophil elastase (ELANE, Homo sapiens, UniProt P08246); enzyme activity, inhibitor, Dixon and Lineweaver-Burk plots): 0.11 µM
CCOC(=O)NC(=O)/C(C#N)=C/c1ccc(Cl)cc1 — Ki (Pick1 PDZ domain; binding, fluorescence polarization; added: labelled hDAT C-terminal peptide): 23 ± 0.7 µM
COC(=O)[C@]1(C)C=C(C(=O)OCc2ccccc2)C(=O)CC1 — Ki (MAPK8; D-peptide displacement, fluorescence polarization): 15.3 ± 2.4 µM
O[C@@H](c1ccc(F)cc1)C(F)(F)CCN1CCC(O)(c2ccc(Cl)cc2)CC1 (racemic) — Ki (D(2) dopamine receptor, long isoform (DRD2, Homo sapiens, UniProt P14416)): 23.7 ± 3.71 µM
Cc1c(N)cccc1C(=O)N1C[C@H](O)C[C@H]1C(=O)NCc1ccc(-c2cnco2)cc1 — Ki (von Hippel-Lindau disease tumor suppressor, with elongin B, C (VHL, Homo sapiens, UniProt P40337); inhibitor, fluorescence polarization; VHL-elonginB-elonginC complex; 1% DMSO, added: FAM-DEALA-Hyp-YIPD peptide): 10.4 µM
COC(=O)C1(C)C=C(c2ncc(C)o2)C(=O)CC1 (centres unmarked) — Ki (MAPK14; D-peptide displacement, fluorescence polarization): 21.2 ± 2.8 µM
CCOC(=O)NC(=O)/C(C#N)=C/c1ccc(C)c(C)c1 — Ki (Pick1 PDZ domain; binding, fluorescence polarization; added: labelled hDAT C-terminal peptide): 23 ± 3 µM
Cc1cc(S(=O)(=O)O)ccc1N=Nc1c(O)ccc2ccccc12 — Ki (Bcl-2-related protein A1 C113S/P104K; binding, inhibitor, fluorescence polarization; added: FITC-labelled Noxa peptide): 2.78 µM
CCCCCCCCCCCCc1ccc(C(=O)NC2(C(=N)N)CC2)cc1 — Ki (SPHK2 (Homo sapiens, UniProt Q9NRA0); inhibitor, FlashPlate): 0.8 µM
CCCCCCCCCCCCCC[C@@H](O)[C@@H](O)[C@H](CO[C@H]1O[C@H](CO)[C@H](O)[C@H](O)[C@H]1O)NC(=O)CCCCCCCCCCCCCCc1ccccc1 — Ki (Cd1d1 dimeric Ig fusion; binding, competitive microarray binding; added: printed glycolipid 100 µM): 16 ± 3.2 µM
O=C(O)CC[C@H](NC(=O)c1cc(C(=O)O)cc([C@H]2CCN[C@@H]2C(=O)O)c1)C(=O)O — Ki (NMDA receptor (rat); binding, radioligand binding; rat cortical synaptosomes; added: [3H]CGP39653): 0.83 µM
CCCCCCCCC(CCCC=CCCCC(CCCCCCCC)C(=O)OCC1(CO)CC(=C(C)C)C(=O)O1)C(=O)OCC1(CO)CC(=C(C)C)C(=O)O1 (racemic) — Ki (PRKCA; binding, [3H]PDBu competition; added: phosphatidylserine 100 µg/mL): 0.0159 ± 0.0014 µM
COc1cc(Nc2ccnc3cc(-c4ccncc4)ccc23)cc(OC)c1OC — Ki (AAK1 (Homo sapiens, UniProt Q2M2I8)): 2.8 µM
O=C(O)c1cc(C(=O)N[C@@H](Cc2ccc(O)cc2)C(=O)O)cc([C@H]2CCN[C@@H]2C(=O)O)c1 — Ki (NMDA receptor (rat); binding, radioligand binding; rat cortical synaptosomes; added: [3H]CGP39653): 0.96 µM
COC(=O)C1(C)C=C(C(=O)NC(C)(C)CO)C(=O)CC1 (centres unmarked) — Ki (MAPK14; D-peptide displacement, fluorescence polarization): 53 ± 11.1 µM
c1ccc(Cc2noc(-c3cccc(OC4CCNCC4)c3)n2)cc1 — Ki (NMT1 (Homo sapiens, UniProt P30419); enzyme activity, inhibitor, CPM fluorescence): 18 µM
C#CCCCOC(=O)[C@]1(C)C=C(C(=O)OC(C)(C)C)C(=O)CC1 — Ki (MAPK14; D-peptide displacement, fluorescence polarization): 0.9 ± 0.2 µM
CCCCCCCCC(CCC=CCCC(CCCCCCCC)C(=O)OCC1(CO)CC(=C(C)C)C(=O)O1)C(=O)OCC1(CO)CC(=C(C)C)C(=O)O1 (racemic) — Ki (PRKCD; binding, [3H]PDBu competition; added: phosphatidylserine 100 µg/mL): 0.00267 ± 0.00059 µM
COC(=O)C1(C)C=C(C(=O)NCC(C)(C)O)C(=O)CC1 (centres unmarked) — Ki (MAPK14; D-peptide displacement, fluorescence polarization): 55.9 ± 6.5 µM
CCCCCCCCCCCCCC[C@@H](O)[C@@H](O)[C@H](CO[C@H]1O[C@H](CO)[C@H](O)[C@H](O)[C@H]1O)NC(=O)CCCCCCCCCCc1ccc(C(F)(F)F)cc1 — Ki (Cd1d1 dimeric Ig fusion; binding, competitive microarray binding; added: printed glycolipid 100 µM): 4.4 ± 1.3 µM
COC(=O)C1(C)C=C(C(=O)Nc2cccc3cccnc23)C(=O)CC1 (centres unmarked) — Ki (MAPK8; D-peptide displacement, fluorescence polarization): > 200 µM
CCc1cc2c(cc1C(C)=NN=C(C)c1cc3c(cc1CC)C(C)(C)CCC3(C)C)C(C)(C)CCC2(C)C — Ki (Bcl-2-related protein A1 C113S/P104K; binding, inhibitor, fluorescence polarization; added: FITC-labelled Noxa peptide): > 20.3 µM
CCCc1cc2c(N3CCn4c(nnc4C(F)(F)F)C3)nc(OCCF)nc2s1 [isotope labelled] — Ki (P2Y purinoceptor 12 (P2RY12, Homo sapiens, UniProt Q9H244); binding, antagonist, competitive displacement; human, membranes): 0.00441 ± 0.0023 µM
CC(C)C[C@H](NC(=O)c1cc(C(=O)O)cc([C@H]2CCN[C@@H]2C(=O)O)c1)C(=O)O — Ki (NMDA receptor (rat); binding, radioligand binding; rat cortical synaptosomes; added: [3H]CGP39653): 3.9 µM
CCCCCCCCC(CCCCC=CCCCCC(CCCCCCCC)C(=O)OCC1(CO)CC(=C(C)C)C(=O)O1)C(=O)OCC1(CO)CC(=C(C)C)C(=O)O1 (racemic) — Ki (PRKCD; binding, [3H]PDBu competition; added: phosphatidylserine 100 µg/mL): 0.00631 ± 0.0013 µM
NC(N)=NC(=O)N1CCc2c(F)ccc(-c3c(F)cc(F)cc3F)c2C1 — Ki (ADRA2C (Homo sapiens, UniProt P18825); radioligand binding): 0.052 µM
CC[N+]1=C(C=CC=CC=CC=C2N(CCCCCC(=O)NCCCCC(NC(=O)CCCCCCC(=O)NCCCC[C@H](NC(=O)N[C@@H](CCC(=O)O)C(=O)O)C(=O)O)C(=O)O)c3ccc(S(=O)(=O)O)cc3C2(C)C)C(C)(C)c2cc(S(=O)(=O)[O-])ccc21 (some centres unmarked) — Ki (FOLH1; enzyme activity, inhibitor; compound in water, added: [3H]NAAG 30 nM): 5e-06 ± 2e-07 µM
CCCCCCCCC(CCCCCCC=CCCCCCCC(CCCCCCCC)C(=O)OCC1(CO)CC(=C(C)C)C(=O)O1)C(=O)OCC1(CO)CC(=C(C)C)C(=O)O1 (racemic) — Ki (Protein kinase C delta type, C1b domain (Prkcd, Mus musculus, UniProt P28867); binding, [3H]PDBu competition; 5 min, 37 °C, added: phosphatidylserine 100 µg/mL): 0.00186 ± 0.00041 µM
CC[N+]1=C(C=CC=CC=CC=C2N(CCCCCC(=O)NCCOCCOCC(=O)NCCCC[C@H](NC(=O)N[C@@H](CCC(=O)O)C(=O)O)C(=O)O)c3ccc(S(=O)(=O)O)cc3C2(C)C)C(C)(C)c2cc(S(=O)(=O)[O-])ccc21 — Ki (FOLH1; enzyme activity, inhibitor; compound in water, added: [3H]NAAG 30 nM): 7e-06 ± 4e-07 µM
CCCCCCCCC(CCCCCCCC=CCCCCCCCC(CCCCCCCC)C(=O)OCC1(CO)CC(=C(C)C)C(=O)O1)C(=O)OCC1(CO)CC(=C(C)C)C(=O)O1 (racemic) — Ki (PRKCA; binding, [3H]PDBu competition; added: phosphatidylserine 100 µg/mL): 0.173 ± 0.017 µM
N#Cc1c(N)nc(SCc2ncc[nH]2)c(C#N)c1-c1cccc(O)c1 — Ki (ADORA1 (Homo sapiens, UniProt P30542); radioligand displacement; HEK293 membranes; 1 h, 25 °C, added: 0.5 nM [3H]DPCPX): 0.0096 ± 0.004 µM
